Experimental data from different studies.
Each line is one published result; not all experiments were run side by side. ± gives the spread as reported.
blaNDM-1: Metallo-beta-lactamase type 2 (blaNDM-1, Klebsiella pneumoniae, UniProt C7C422)
MCA2: Metacaspase-2 (MCA2, Trypanosoma brucei brucei, UniProt Q585F3)
ADRA2A: Alpha-2A adrenergic receptor (ADRA2A, Homo sapiens, UniProt P08913)
Genome polyprotein NS2B-NS3 protease: Genome polyprotein, NS2B-NS3 protease (ZIKV, UniProt A0A024B7W1)
Oprm1: Mu-type opioid receptor (Oprm1, Rattus norvegicus, UniProt P33535)

Cc1cc(O)cc(C)c1C[C@H](N)C(=O)N[C@H](CCCNC(=N)N)C(=O)N[C@@H](Cc1ccccc1)C(=O)N[C@@H](CCCCNC(=O)CN1CCN(CC(=O)O)CCN(CC(=O)O)CCN(CC(=O)O)CC1)C(N)=O
Ki (Oprd1 (Mus musculus, UniProt P32300); binding; CD-1 mouse): 26.5 ± 5.5 nM

CC(C)C[C@H]1NC(=O)[C@@H]2CCCN2C(=O)[C@H](C(C)C)NC(=O)[C@@H]2CCCN2C(=O)[C@@H](CS)NC(=O)[C@H](CCCCN)NC(=O)[C@H](CCCCN)NC(=O)[C@H](CC(=O)O)NC1=O
Ki (blaNDM-1; enzyme activity, inhibitor; together with: nitrocefin 1.5 µM): 10800 nM

O=C1c2ccccc2CCCN1CCCCN1CCN(c2cccc(Cl)c2Cl)CC1
Ki (ADRA1B (Homo sapiens, UniProt P35368); ligand displacement, radioligand): 657 nM

C[C@H](NC(=O)[C@H](CCCCN)NC(=O)c1ccccc1N)C(=O)N[C@H](C(=O)N[C@@H](CO)C(=O)N[C@@H](CO)C(=O)N[C@@H](C)C(=O)N[C@@H](CCC(N)=O)C(=O)NCCNc1ccc([N+](=O)[O-])cc1[N+](=O)[O-])[C@@H](C)O
Ki (MCA2; enzyme activity, competitive inhibitor; Trypanosoma brucei; together with: Z-FR-AMC substrate): 9400 nM

CC(C)[C@H]1NC(=O)C[C@H]2/C=C/CCSSC[C@@H](NC1=O)C(=O)N[C@H](Cc1cccc3ccccc13)C(=O)NCC(=O)O2
inhibition (MAPK3 (Homo sapiens, UniProt P27361); enzyme activity, inhibitor; 10 µM): 4.8%

COc1cc2c(cc1O)C(CCc1ccc(Cl)cc1)N(C)CC2 (stereo not shown)
Ki (ADRA2A; cell-free assay, radioligand): 340 nM

CC(Cc1cccs1)NCc1ccc(Cl)cc1 (stereo not shown)
Ki (Slc6a4 (Rattus norvegicus, UniProt P31652); ligand displacement, radioligand): 2700 nM

CN(C)[C@H]1C[C@@]23CC[C@@]4(O2)C(=CC[C@]2(C)[C@@H](c5ccc6ccncc6c5)CC[C@H]24)C=C3[C@@H](O)[C@@H]1O
inhibition (MTOR (Homo sapiens, UniProt P42345); 1 µM): -2.4%

C[C@H](NC(=O)[C@H](CCCCN)NC(=O)c1ccccc1N)C(=O)N[C@@H](CCCNC(=N)N)C(=O)N[C@@H](Cc1ccc(O)cc1)C(=O)N[C@@H](CO)C(=O)N[C@@H](C)C(=O)N[C@@H](CCC(N)=O)C(=O)NCCNc1ccc([N+](=O)[O-])cc1[N+](=O)[O-]
Ki (MCA2; enzyme activity, competitive inhibitor; Trypanosoma brucei; together with: Z-FR-AMC substrate): 4100 nM

CC(=O)N[C@@H](CC(C)C)C(=O)N[C@@H](CC(C)C)C(=O)N[C@@H](CC(C)C)C(=O)N[C@@H](CC(C)C)C(=O)N[C@@H](CC(C)C)C(=O)N[C@@H](CCCN=C(N)N)C(=O)N[C@H](C(=O)N[C@@H](CCCCN)C(=O)N[C@@H](CCCN=C(N)N)C(N)=O)C(C)C
Ki (Neuroendocrine convertase 2 (Homo sapiens, UniProt P16519); enzyme activity, inhibitor): 720 nM

CC(C)[C@@H]1NC(=O)[C@@H]2CCCN2C(=O)[C@@H](CS)NC(=O)[C@H](CCCCN)NC(=O)[C@H](CCCCN)NC(=O)[C@H](CC(=O)O)NC(=O)[C@H]2CCCN2C(=O)[C@@H]2CCCN2C1=O
Ki (blaNDM-1; enzyme activity, inhibitor; together with: nitrocefin 1.5 µM): 22300 nM

CC(C)C[C@H](NC(=O)[C@H](CCCCN)NC(=O)[C@H](CCCCN)NC(=O)Cc1cccc(CNC(=O)CNC(=O)CN)c1)B(O)O
Ki (Genome polyprotein NS2B-NS3 protease; inhibitor; Zika virus): 294 ± 27 nM

CN(C)[C@H](CNC(=O)/C=C/c1cccc2ccccc12)Cc1ccc(O)cc1
Ki (ADRA2A; cell-free assay): 1800 nM

Cc1cc(O)cc(C)c1C[C@H](N)C(=O)N[C@H](CCCNC(=N)N)C(=O)N[C@@H](Cc1ccccc1)C(=O)N[C@@H](CCCCN)C(=O)N[C@@H]1CCCC[C@H]1NC(=O)[C@H](Cc1ccccc1)NC(=O)[C@H](CC1CCCCC1)NC[C@@H]1Cc2ccccc2CN1C(=O)[C@@H](N)Cc1ccc(O)cc1
Ki (Oprm1; ligand displacement, radioligand; cell membranes): 89.4 nM

O=C1NC(=O)c2c1c1cc(F)c[n+]3c1c1c2c2cc(O)ccc2[n]1[Ru-4]312([N]=C=S)[S+]3CC[S+]1CC[S+]2CC3 (stereo not shown)
remaining activity (EPHA4 (Homo sapiens, UniProt P54764); enzyme activity; 100 nM, human enzyme, together with: 10 µM ATP; reference: untreated): 113%

O=C1NC2(CC2)COc2ncc(F)cc2[C@H]2COCCN2c2ccn3ncc1c3n2
organ-to-brain weight ratio (Sprague-Dawley rat, female, adrenals; oral, 20 mg/kg/day, 4 weeks dosing, end of recovery): 3.55 ± 0.35%

C[C@H](NC(=O)[C@H](CCCCN)NC(=O)c1ccccc1N)C(=O)N[C@@H](Cc1c[nH]cn1)C(=O)N[C@@H](CO)C(=O)N[C@@H](CO)C(=O)N[C@@H](C)C(=O)N[C@@H](CCC(N)=O)C(=O)NCCNc1ccc([N+](=O)[O-])cc1[N+](=O)[O-]
Ki (MCA2; enzyme activity, competitive inhibitor; Trypanosoma brucei; together with: Z-FR-AMC substrate): 5100 nM

CC(C)C[C@H](NC(=O)[C@H](CCCCN)NC(=O)[C@H](CCCCN)NC(=O)Cc1cccc(CNC(=O)[C@@H](C)NC(=N)N)c1)C(=O)O
Ki (Genome polyprotein NS2B-NS3 protease; inhibitor; Zika virus): 37100 ± 500 nM

COc1ccccc1-c1n[nH]c2nc(NC3CCN(C(=O)Cc4ccc(F)cc4F)CC3)ncc12
relative abundance (bead binding, competition bead pull-down, refers to: LINJ.23.0410; Leishmania donovani axenic amastigote extract; 10 µM; reference: vehicle): 0.94

CS(C)(=O)=Nc1ccc(-c2ccc(-c3nc4cc(O[C@@H]5CO[C@H]6[C@@H]5OC[C@H]6O)[nH]c4cc3F)cc2)cc1
inhibition (PDGFRA (Homo sapiens, UniProt P16234, D842V); enzyme activity, inhibitor; 10 µM): 29%

CN1CCCN(C(=O)c2ccc(S(=O)(=O)F)cc2)c2ccccc21
Ki (Uncharacterized hydrolase SAUSA300_2518 (Staphylococcus aureus, UniProt Q2FDS6); enzyme activity, inhibitor): 118000 nM

CC(C)(COP(=O)(O)OP(=O)(O)OC[C@H]1O[C@@H](n2cnc3c(N)ncnc32)[C@H](O)[C@@H]1OP(=O)(O)O)[C@@H](O)C(=O)NCCC(=O)NCCSCC(=O)N[C@@H](CO)C(=O)NCC(=O)N[C@@H](CCCNC(=N)N)C(=O)N[C@@H](CCCNC(=N)N)C(=O)N[C@@H](CCCNC(=N)N)C(=O)N[C@@H](CCCNC(=N)N)C(=O)N[C@@H](CCCNC(=N)N)C(=O)N[C@@H](CCCNC(=N)N)C(N)=O
Ki (NAA40 (Homo sapiens, UniProt Q86UY6); enzyme activity, inhibitor, fluorescence): 337 nM

Cc1cc(O)cc(C)c1C[C@H](N)C(=O)N[C@H](CCCNC(=N)N)C(=O)N[C@@H](Cc1ccccc1)C(=O)N(C)CC(=O)N(C)Cc1cc(C(F)(F)F)cc(C(F)(F)F)c1
Ki (OPRD1 (Homo sapiens, UniProt P41143, D95G)): 6.92 ± 0.06 nM

CC1(C)NC(=O)[C@@H](CCC(=O)O)NC(=O)[C@H](CCC(=O)O)NC(=O)[C@H](CCCN)NC(=O)[C@H](C(c2ccccc2)c2ccccc2)NC(=O)[C@@H]2CCCN2C(=O)[C@H]2CCCN2C(=O)[C@H](CC(N)=O)NC1=O
Ki (blaNDM-1; enzyme activity, inhibitor; together with: nitrocefin 1.5 µM): 98100 nM

CC(C)(C)C(=O)OCOP(=O)(OCOC(=O)C(C)(C)C)C1CCCN(O)C1=O (stereo not shown)
TGI (EKVX): 12500 nM

CC[C@H](C)[C@@H]1NC(=O)[C@@H](CCCCN)NC(=O)[C@H](CC(=O)O)NC(=O)[C@H]2CCCN2C(=O)[C@@H](CCC(N)=O)NC(=O)[C@H](C(C)C)NC(=O)[C@@H]2CCCN2C(=O)[C@@H](CS)NC1=O
Ki (blaNDM-1; enzyme activity, inhibitor; together with: nitrocefin 1.5 µM): 10200 nM

CC(C)C[C@H](NC(=O)[C@H](CCCCN)NC(=O)[C@H](CCCNC(=N)N)NC(=O)Cc1cccc(CNC(=O)[C@@H](C)NC(=N)N)c1)B(O)O
Ki (Genome polyprotein NS2B-NS3 protease; inhibitor; Zika virus): 50.8 ± 5.5 nM

CC[C@H](C)[C@H](NC(=O)[C@H](CO)NC(=O)[C@H](Cc1ccc(O)cc1)NC(=O)[C@H](Cc1ccc(O)cc1)NC(=O)[C@H](CC(N)=O)NC(=O)CNC(=O)[C@H](CO)NC(=O)[C@H](Cc1ccc(O)cc1)NC(=O)[C@H](CO)NC(=O)[C@H](CO)NC(=O)[C@H](CC(N)=O)NC(=O)COCCOCCNC(=O)CN1CCN(CC(=O)O)CCN(CC(=O)O)CCN(CC(=O)O)CC1)C(=O)N[C@@H](CC(C)C)C(N)=O [copper-64 labelled]
tissue uptake (dynamic PET; KPC mouse Ptf1a-CreER tdTomato, metastases; intravenous, 4.6 MBq/mouse, 6.5 min, 84 d after tamoxifen): 14.7 %ID/mL

C[C@H](NC(=O)[C@H](CCCCN)NC(=O)c1ccccc1N)C(=O)N[C@@H](CCC(=O)O)C(=O)N[C@@H](CO)C(=O)N[C@@H](CO)C(=O)N[C@@H](C)C(=O)N[C@@H](CCC(N)=O)C(=O)NCCNc1ccc([N+](=O)[O-])cc1[N+](=O)[O-]
Ki (MCA2; enzyme activity, competitive inhibitor; Trypanosoma brucei; together with: Z-FR-AMC substrate): 3500 nM

Cc1cc(O)cc(C)c1CCC(=O)N[C@@H]1C/C=C/CC[C@@H](C(N)=O)NC(=O)[C@H](Cc2ccccc2)NC(=O)[C@H](Cc2ccccc2)NC1=O
Ki (Oprm1; ligand displacement, radioligand; cell membranes): 16.7 nM

C[C@H](NC(=O)[C@H](CCCCN)NC(=O)c1ccccc1N)C(=O)N[C@@H](CCCNC(=N)N)C(=O)N1CCC[C@H]1C(=O)N[C@@H](CO)C(=O)N[C@@H](C)C(=O)N[C@@H](CCC(N)=O)C(=O)NCCNc1ccc([N+](=O)[O-])cc1[N+](=O)[O-]
Ki (MCA2; enzyme activity, competitive inhibitor; Trypanosoma brucei; together with: Z-FR-AMC substrate): 4600 nM

CC(C)C[C@@H]1NC(=O)[C@@H]2CCCN2C(=O)[C@@H](CS)NC(=O)[C@H](Cc2ccc(O)cc2)NC(=O)[C@@H](CCCNC(=N)N)NC(=O)[C@@H](CCCNC(=N)N)NC(=O)C(C)(C)NC(=O)[C@@H]2CCCN2C1=O
Ki (blaNDM-1; enzyme activity, inhibitor; together with: nitrocefin 1.5 µM): 1620 nM

CC[C@H](C)[C@H](NC(=O)[C@H](CO)NC(=O)[C@H](CO)NC(=O)[C@H](CCCNC(=N)N)NC(=O)[C@H](C)NC(=O)[C@H](CCCCN)NC(=O)c1ccccc1N)C(=O)N[C@@H](CCC(N)=O)C(=O)NCCNc1ccc([N+](=O)[O-])cc1[N+](=O)[O-]
Ki (MCA2; substrate; pH 7.4, 25 °C, together with: 1 mM CaCl2): 500 nM

NC(=O)[C@@H]1CCCCC[C@@H](NC(=O)[C@@H](N)Cc2ccc(O)cc2)C(=O)N[C@@H](Cc2ccccc2)C(=O)N[C@@H](Cc2ccccc2)C(=O)N1
Ki (Oprm1; ligand displacement, radioligand; cell membranes): 1.04 nM

Repeated from above:
COc1ccccc1-c1n[nH]c2nc(NC3CCN(C(=O)Cc4ccc(F)cc4F)CC3)ncc12
relative abundance (bead binding, competition bead pull-down, refers to: LINJ.23.0410; Leishmania donovani axenic amastigote extract; 10 µM; reference: vehicle): 0.94

O=C1c2ccccc2CCCN1CCCCN1CCN(c2cccc(Cl)c2Cl)CC1
Ki (ADRA1B (Homo sapiens, UniProt P35368); ligand displacement, radioligand): 657 nM
